Measured values gathered from unrelated publications.
Each numbered part is a random draw from the data of one study; scales do not carry over between parts. Positions count from the first letter of the parent shown.

Series 1
Target: ABI1, truncated, D143A, DHFR fusion (Arabidopsis thaliana, UniProt P49597)
Technique: DHFR PCA, dose-response
Matrix: yeast
Setting: Hill fit, mean, not affinity
Together with: (+)-ABA, dose series
Reading: lower = more sensitive
Parent: PYL1, truncated, DHFR fusion (Arabidopsis thaliana, UniProt Q8VZS8); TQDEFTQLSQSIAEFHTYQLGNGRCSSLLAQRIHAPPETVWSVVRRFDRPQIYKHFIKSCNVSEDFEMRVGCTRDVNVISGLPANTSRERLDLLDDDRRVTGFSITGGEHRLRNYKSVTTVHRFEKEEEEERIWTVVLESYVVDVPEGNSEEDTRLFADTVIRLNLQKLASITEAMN
With `T6S` the ABA EC50 was 2510 nM.
`Y18Q` has an ABA EC50 of 9170 nM.
With `D97R` the ABA EC50 was 3020 nM.
The ABA EC50 of `F66Q` is reported as 2880 nM.

Series 2
Target: Interferon regulatory factor 3, full length, phosphomimetic (IRF3, Homo sapiens, UniProt Q14653, residues 1-427, S386D/S396D/S398D/S402D/T404D/S405D)
Technique: protein-binding microarray
Molecule type: double-stranded DNA, one strand shown
Matrix: in vitro
Concentration: 2540 nM top
Setting: 60-bp whole probe
Together with: salmon DNA 0.4 mg/ml
Reference: random background probes
Reading: higher = stronger binding
All sequences stand within: GCCTAGCAC … GTCTTGATTCGCTTGACGCTGCTG
Residues (chain): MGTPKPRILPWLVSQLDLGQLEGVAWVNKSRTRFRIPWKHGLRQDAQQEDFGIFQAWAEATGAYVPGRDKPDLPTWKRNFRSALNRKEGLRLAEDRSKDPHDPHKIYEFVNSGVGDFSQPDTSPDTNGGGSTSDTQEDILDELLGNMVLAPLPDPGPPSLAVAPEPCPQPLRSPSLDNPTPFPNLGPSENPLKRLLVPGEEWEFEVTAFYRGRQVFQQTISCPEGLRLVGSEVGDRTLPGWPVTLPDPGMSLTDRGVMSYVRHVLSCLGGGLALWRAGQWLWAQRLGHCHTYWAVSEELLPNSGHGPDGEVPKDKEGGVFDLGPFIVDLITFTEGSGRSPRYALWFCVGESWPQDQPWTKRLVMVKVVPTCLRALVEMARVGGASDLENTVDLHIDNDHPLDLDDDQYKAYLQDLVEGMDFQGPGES
For `GACGGTGTCCTACTGCTGACGTGCTAG`, “fitted relative affinity” read 0.808 z-score.
For `TTAGGACAGGGTTTCGGTTAGTGCTAG`, “fitted relative affinity” read 2.91 z-score.
`TTAGGACTGGGATTCGGTTAGTGCTAG`: “fitted relative affinity” 0.0349 z-score.
For `TCAGACTTTGGTTTGTAACTGTGCTAG`, “fitted relative affinity” read -0.305 z-score.
For `TCAATACTCGTTTACATACTGTGCTAG`, “fitted relative affinity” read 0.779 z-score.
Under “fitted relative affinity”, `CCATCTCTGCTCCTTCTGACAGTGCTA` is recorded as 2.49 z-score.
Under “fitted relative affinity”, `ATCTCTGTCCGTGCTCAGCTCGTGCTA` is recorded as 0.393 z-score.

Series 3
Target: CCNB2, cyclin fold, Cln2 fusion (human)
Technique: yeast growth competition, sequencing
Matrix: yeast
Setting: weak parent motif
Reference: not given
Reading: higher = stronger binding
Parent: RBL2 docking peptide (human); STTRRRLFVENDS; partner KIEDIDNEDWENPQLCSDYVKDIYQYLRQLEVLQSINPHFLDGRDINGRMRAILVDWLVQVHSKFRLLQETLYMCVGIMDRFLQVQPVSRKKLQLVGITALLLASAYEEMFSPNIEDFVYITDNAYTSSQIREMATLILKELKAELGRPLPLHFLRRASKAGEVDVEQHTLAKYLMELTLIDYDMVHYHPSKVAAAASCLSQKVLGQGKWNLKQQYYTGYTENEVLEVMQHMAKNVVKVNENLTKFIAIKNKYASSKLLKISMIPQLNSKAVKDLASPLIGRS
`STYRRRLFVENDS [T3Y]`: “normalised enrichment score” 0.703.
Under “normalised enrichment score”, `STTRGRLFVENDS [R5G]` is recorded as -0.217.
Under “normalised enrichment score”, `STTRRRLFVENCS [D12C]` is recorded as 0.29.
Under “normalised enrichment score”, `STTNRRLFVENDS [R4N]` is recorded as -0.373.
Under “normalised enrichment score”, `STTRRRLFVENDK [S13K]` is recorded as 0.572.
For `STTRRGLFVENDS [R6G]`, “normalised enrichment score” read -0.4.

Single results of other studies
With `PhoQ, residues 284 288 289 292 302 303 TSTLRA` the fold induction was 10.4 (PhoP, residues 12 14 15 18 19 HEGLL (Escherichia coli, UniProt P23836); Sort-seq, measured: YFP reporter; E. coli; PhoQ-PhoP variant library, together with: 10 µM Mg2+; reference: high Mg2+ state, higher = stronger signaling).

Some of these lines once more (series 3):
Under “normalised enrichment score”, `STTRRRLFVENCS [D12C]` is recorded as 0.29.
Under “normalised enrichment score”, `STTNRRLFVENDS [R4N]` is recorded as -0.373.
